Results collected from several papers.
Numbered parts are unrelated; each lists some results of a single study.

Study 1
Target: Sal-like protein 4, full length isoform A (SALL4, Homo sapiens, UniProt Q9UJQ4, residues 1-1053)
Chain of UniProt Q9UJQ4 (whole entry, looked up): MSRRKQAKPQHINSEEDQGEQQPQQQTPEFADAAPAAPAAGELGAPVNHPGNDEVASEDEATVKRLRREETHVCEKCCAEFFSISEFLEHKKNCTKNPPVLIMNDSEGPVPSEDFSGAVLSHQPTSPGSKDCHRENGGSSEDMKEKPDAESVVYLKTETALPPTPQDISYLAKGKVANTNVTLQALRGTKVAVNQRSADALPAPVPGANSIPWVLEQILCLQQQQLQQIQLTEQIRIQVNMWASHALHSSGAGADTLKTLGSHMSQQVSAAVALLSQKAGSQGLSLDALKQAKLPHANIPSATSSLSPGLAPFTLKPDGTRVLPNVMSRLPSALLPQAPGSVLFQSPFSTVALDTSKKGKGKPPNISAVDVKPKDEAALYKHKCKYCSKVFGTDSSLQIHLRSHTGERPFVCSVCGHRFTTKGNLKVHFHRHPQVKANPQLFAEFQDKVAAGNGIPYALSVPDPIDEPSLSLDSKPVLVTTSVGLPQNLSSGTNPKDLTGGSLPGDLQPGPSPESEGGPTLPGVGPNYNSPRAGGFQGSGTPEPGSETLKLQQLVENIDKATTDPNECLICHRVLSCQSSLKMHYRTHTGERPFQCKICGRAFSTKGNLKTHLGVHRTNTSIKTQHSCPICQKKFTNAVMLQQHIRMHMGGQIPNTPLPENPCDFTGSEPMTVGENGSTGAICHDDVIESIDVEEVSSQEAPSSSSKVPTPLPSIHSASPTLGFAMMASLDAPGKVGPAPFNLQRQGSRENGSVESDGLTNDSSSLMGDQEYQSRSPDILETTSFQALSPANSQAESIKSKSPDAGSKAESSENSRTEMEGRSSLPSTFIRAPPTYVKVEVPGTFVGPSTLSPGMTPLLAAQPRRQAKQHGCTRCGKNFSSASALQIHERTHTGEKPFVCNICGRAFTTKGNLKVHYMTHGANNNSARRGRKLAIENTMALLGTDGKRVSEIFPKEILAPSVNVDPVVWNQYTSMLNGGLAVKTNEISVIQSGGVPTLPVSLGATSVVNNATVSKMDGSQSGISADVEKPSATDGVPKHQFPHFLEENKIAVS
Technique: universal PBM
Form: double-stranded DNA, one strand shown
Sample: in vitro
Concentration: 600 nM
Setting: 8-mer, flanks averaged, mean of replicates
Direction: higher = stronger binding
| Sequence | E-score |
| --- | --- |
| ATCCGTAA | -0.0381 |
| CCTCACAA | -0.021 |
| ACGGTGAG | -0.127 |

Study 2
Target: Histone acetyltransferase KAT6A, winged helix 2, GST fusion (KAT6A, Homo sapiens, UniProt Q92794, residues 85-181)
Technique: protein binding microarray
Form: double-stranded DNA, one strand shown
Sample: in vitro
Concentration: not given
Setting: 8-mer, flanks averaged, mean of 2 arrays, mostly near background
Relative to: not given
Direction: higher = stronger binding
Construct (chain): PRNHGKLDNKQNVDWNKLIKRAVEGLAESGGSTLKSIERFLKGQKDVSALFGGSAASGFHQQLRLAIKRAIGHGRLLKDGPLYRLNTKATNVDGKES
| Sequence | E-score |
| --- | --- |
| CCGGAGCC | 0.0924 |
| TACAATCA | -0.121 |
| AACGCGAA | -0.0271 |

Study 3
Target: Interferon regulatory factor 5, full length, phosphomimetic (IRF5, Homo sapiens, UniProt Q13568-2, residues 1-514, S451D/S453D/S456D/S462D)
Technique: protein-binding microarray
Form: double-stranded DNA, one strand shown
Sample: in vitro
Concentration: 940 nM top
Setting: 60-bp whole probe
With: salmon DNA 0.4 mg/ml
Relative to: random background probes
Direction: higher = stronger binding
| Sequence | fitted relative affinity [z-score] |
| --- | --- |
| GCCTAGCACCTCACCCAGTCCAGACACCCGTGCTAGGTCTTGATTCGCTTGACGCTGCTG | 0.217 |
| GCCTAGCACGACGGTTTCCTTCTCCCGACGTGCTAGGTCTTGATTCGCTTGACGCTGCTG | 2.6 |
| GCCTAGCACCTTTTATGCTCTTTCTACATGTGCTAGGTCTTGATTCGCTTGACGCTGCTG | 1.18 |
| GCCTAGCACTTAGATTTCAGTTTCGCTTAGTGCTAGGTCTTGATTCGCTTGACGCTGCTG | 6.1 |

Single results of other studies
| Substance | target | assay | system | setting | how to read | measurement | value |
| --- | --- | --- | --- | --- | --- | --- | --- |
| PhoQ, residues 284 288 289 292 302 303 NLCILV | PhoP, residues 12 14 15 18 19 DLLYY (Escherichia coli, UniProt P23836) | Sort-seq, refers to: YFP reporter | E. coli | PhoQ-PhoP variant library, with: 10 µM Mg2+ | relative to: high Mg2+ state, higher = stronger signaling | fold induction | 1.46 |

Repeated from above (study 1):
| Sequence | E-score |
| --- | --- |
| ATCCGTAA | -0.0381 |
